Measurements of several laboratories.
Protocols differ between the studies behind these lines. Several values in a cell are separate wells, animals, samples, runs or records.
Target: Serine/threonine-protein kinase PAK 2 (PAK2, Homo sapiens, UniProt Q13177)
Sequence of UniProt Q13177 (whole entry, looked up): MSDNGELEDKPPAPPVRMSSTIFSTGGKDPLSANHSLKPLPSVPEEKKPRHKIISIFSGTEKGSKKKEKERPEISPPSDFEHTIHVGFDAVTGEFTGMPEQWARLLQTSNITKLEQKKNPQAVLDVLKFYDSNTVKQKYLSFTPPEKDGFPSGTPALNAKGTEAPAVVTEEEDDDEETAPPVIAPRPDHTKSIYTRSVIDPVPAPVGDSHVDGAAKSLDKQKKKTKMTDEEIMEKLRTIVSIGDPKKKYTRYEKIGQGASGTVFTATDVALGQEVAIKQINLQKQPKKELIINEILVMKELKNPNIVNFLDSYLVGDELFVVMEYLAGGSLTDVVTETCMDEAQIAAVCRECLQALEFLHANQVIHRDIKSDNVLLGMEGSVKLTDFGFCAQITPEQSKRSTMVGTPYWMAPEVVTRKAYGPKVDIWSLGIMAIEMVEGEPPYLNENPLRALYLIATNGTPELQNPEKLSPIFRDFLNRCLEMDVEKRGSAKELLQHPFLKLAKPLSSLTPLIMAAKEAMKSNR

| Compound | test | test system | setting | scale | quantity | value |
| --- | --- | --- | --- | --- | --- | --- |
| NC(=O)C[C@H]1CCc2sc3ncnc(O[C@H]4CC[C@H](N5CCOCC5)CC4)c3c21 | enzyme activity, inhibitor |  | 10 µM |  | inhibition | 2% |
| COc1cc(-n2cc3cc(F)cc(C(N)=O)c3n2)cc(Cl)c1C1CC(O)(CCO)Cc2ccccc21 (stereo not shown) | enzyme activity, inhibitor |  | 10 µM |  | inhibition | 0.85% |
| C=CC(=O)Nc1cccc(-c2cnc3[nH]cc(C(=O)NC(C)(C)C)c3n2)c1 | kinase activity |  | 0.1 µM |  | inhibition | 3% and 2% |
| Cc1nc2c(F)cc(-c3nc(Nc4ccc(CNC(=O)CCCCCCC(=O)NO)cc4)ncc3F)cc2n1C(C)C | enzyme activity, inhibitor |  | 1 µM |  | inhibition | 68% |
| CCN1CCN(Cc2ccc(C(=O)Nc3ccc(C)c(NCc4cnc5[nH]ccc5c4OC)c3)cc2C(F)(F)F)CC1 | binding, competition with immobilised ligand |  | 1 µM |  | remaining binding | 80% |
| O=c1c(-c2ccc(Cl)c(CN3CCOCC3)c2)coc2cc(O)ccc12 | enzyme activity, inhibitor |  | 1 µM |  | remaining activity | 104% |
| C=CC(=O)N1CCc2ccc(-n3c(=O)ccc4cnc5ccc(-c6cnn(C)c6)cc5c43)cc21 | KINOMEscan |  | 1 µM | baseline: DMSO control | remaining binding | 100% |
| CNS(=O)(=O)Nc1nccc(Cc2c(C)c3ccc(Oc4ncccc4F)cc3oc2=O)c1F | cell-free assay, competition with immobilised ligand |  | 10 µM |  | remaining binding | 81% |
| O=C=[N][Ru-4]123([n]4c5ccc(O)cc5c5c6c(c7cc(F)c[n+]1c7c54)C(=O)NC6=O)[S+]1CC[S+]2CC[S+]3CC1 (stereo not shown) | enzyme activity |  | 100 nM, human enzyme, added: 10 µM ATP | baseline: untreated | remaining activity | 91% |
| COc1cc(Nc2nccc(-c3cnn4nc(OC)ccc34)n2)cc(C(F)(F)F)c1 | binding, competition with immobilised ligand |  | 1 µM |  | remaining binding | 100% |
| CN1CCN(Cc2ccc(-c3ccc(CO[C@H]4CCC[C@@H]4NC(=O)c4cc(-c5cnn(C)c5)cnc4N)cc3)cc2)CC1 | enzyme activity, inhibitor |  | 0.1 µM |  | inhibition | 8% |
| C[C@H]1CN(C(=O)c2cn(-c3ccnc(N)n3)c3cc(C#CC4(O)CCCCC4)ccc23)CCN1 | enzyme activity, inhibitor, FRET |  | 1 µM |  | inhibition | 36% |
| CNC(=O)C1CCN(c2cc(C)c(F)cc2NC(=O)c2ccc(-c3cc(O)ccc3C)c(C)c2)CC1 | binding, competition with immobilised ligand |  | 1 µM |  | remaining binding | 52% |
| CC(=O)N1c2ccc(-c3ccc(CNC(=O)c4cn5cc(-c6cnc(N)nc6)nc(N6CCOCC6)c5n4)cc3)cc2CC[C@@H]1C | KINOMEscan |  | 10 µM |  | remaining binding | 100% |
| O=C(Cc1ccc(OCc2ccccc2)cc1)NC1(C(=O)O)CCN(C(=O)c2ccc(-c3cccc(Cl)c3)cc2)CC1 | enzyme activity, inhibitor |  | 10 µM |  | activity vs control | 98% |
| COc1c(OCCCN2CCOCC2)ccc2c1N=C(NC(=O)c1cnc(N)nc1)N1CCN=C21 | kinase activity, inhibitor |  | 1 µM | baseline: untreated control | remaining activity | 128% |
| O=C(O)CCC(=O)c1cccc(NS(=O)(=O)c2c[nH]c3ncccc23)c1 | kinase activity, radiometric |  | 10 µM |  | remaining activity | 97% |
| Cc1cccc(O[C@H]2CCC[C@@H](C(C)CNCc3ccncc3)C2)c1 (relative stereo) | enzyme activity, inhibitor |  | 1 µM |  | inhibition | 2% |
| CS(=O)(=O)Nc1cccc(-c2csc3cnc(Nc4ccc(N5CCN(CCCCCOc6cccc7c6C(=O)N(C6CCC(=O)NC6=O)C7=O)CC5)cc4)nc23)c1 (stereo not shown) | probe labelling, inhibitor, KiNativ chemoproteomics | MOLT-4 | 1 µM |  | inhibition | 25.1% |
| COc1ccc(NC(=O)Nc2ccc3c(c2)C(=O)N(C(C)CO)CC(C)C(CN(C)Cc2ccc4c(c2)OCO4)O3)cc1 (stereo not shown) | kinase activity, KinaseProfiler |  | 0.03 µM, species human | baseline: control | remaining activity | 90% |
| CN1CCN(Cc2ccc(NC(=O)c3cccc(C#Cc4cnc(N)c5ncccc45)c3)cc2C(F)(F)F)CC1 | cell-free assay, competition with immobilised ligand |  | 0.5 µM |  | remaining binding | 100% |
| Nc1ncc2c(n1)-c1c([nH]c3ccc(C4=CCOCC4)cc13)CCC2 | binding, competition with immobilised ligand |  | 1 µM |  | remaining binding | 94% |

Repeated from above:
| Compound | test | test system | setting | scale | quantity | value |
| --- | --- | --- | --- | --- | --- | --- |
| CC(=O)N1c2ccc(-c3ccc(CNC(=O)c4cn5cc(-c6cnc(N)nc6)nc(N6CCOCC6)c5n4)cc3)cc2CC[C@@H]1C | KINOMEscan |  | 10 µM |  | remaining binding | 100% |
